Assay results from different studies.
Numbered parts are unrelated; each lists some results of a single study.

Series 1
Target: RNA binding protein fox-1 homolog 2, RRM domain, GST-SBP tag (RBFOX2, Homo sapiens, UniProt O43251-10, residues 100-194)
Method: RNA Bind-n-Seq
Molecule type: RNA
Matrix: in vitro
Tested at: 365 nM
Notes: natural RNA segment, single round, ends assumed
Reference: no-protein control
Reading: higher = stronger binding
Quantity: RBNS enrichment (R)
Residues (chain): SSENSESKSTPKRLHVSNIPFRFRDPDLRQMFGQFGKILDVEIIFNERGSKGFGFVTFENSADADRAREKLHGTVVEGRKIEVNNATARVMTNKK
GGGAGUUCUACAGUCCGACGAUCGCGAGUUCUCGGUUUUGCCGGUUUCUUUAGUUCUUUACUGUCACUGUCAUGUAAUCAGCUAAUUCUCUGUGGAUGUUGCUGUAAAGUAUGCAUGUUCCUUUCAUGUGUAUUGGAAUUCUCGGGUGCCAA: 0.39
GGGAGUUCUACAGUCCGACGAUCCUGCACUUGCUGGGUUCCUCCCCUCUGCCUCCUUUCUUGAACUCAGAGGUAGGGACUAAGCACCAGGUGCCAGCAGGCCCUCCUGCUGUGGCCACUCCAGAGUGCUCCGUUGGAAUUCUCGGGUGCCAA: 0.198
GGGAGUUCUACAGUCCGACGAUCAGUCCCACAUGUGGUCAUCAGAAAAUAAGCCAUUCCUCAUACCAAUAUAGGAUCAGCUCCUUGACCUCUGAGGGGCAGGAGUGCUUCCUGGUGUGUGUAUUAGAAUCCCUUGGAAUUCUCGGGUGCCAA: 0.309
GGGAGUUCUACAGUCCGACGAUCUCACUGUCUGCUUUUCAAUCACUAGUACAGAAUGGGCUGCAUUUUGACAUAGACUGUUAGGCACCAUUGACUUAUAAAGUUUUGUUUAUAGUUGCUCUAUCUCAGAUAACUGGAAUUCUCGGGUGCCAA: 0.455
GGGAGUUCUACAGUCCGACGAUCGAUGGGGAGAAGUGAUUUCUUUCUUGCCUUCAAUGUGACCCUGUGAAGAUUUAUUGCAUUCUCCAUUUGUUAUCUGGGGACUUGUUAAAUAGAAACUGAAACUACUCUUGUGGAAUUCUCGGGUGCCAA: 0.314
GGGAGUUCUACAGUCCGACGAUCAACAGAAUUUGGUAGCACUUACCUCUACAGACACCUGCUAAUAAAUUAUUUUCUGUCAAAAGAAAAAACACAAGCAUGUGUGAGAGACAGUUUGGAAAAAUCAUGGUCAAUGGAAUUCUCGGGUGCCAA: 0.937
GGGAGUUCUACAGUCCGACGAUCAGGUACUGCCCGCGUUUAAAGGAAGUGCCUUGGCUGGGGCAGCAGUGUCAGCUUGGAUAACUGAAAACACCUACAUCCUACAGCAUAAAGAACUGCUGAGCGAGCUACUGUGGAAUUCUCGGGUGCCAA: 0.469
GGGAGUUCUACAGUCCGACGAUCCACCUUUCCUGUGGCCCAACCUUUUAUUUAAAUGUGCUACCCUCUGCCUCAAGGCUUGGUUCCUGGAAAGUAAAGGUGAAAACAUCCCCUUUCACCCCUCUGCAAAACAAUGGAAUUCUCGGGUGCCAA: 0.842

Series 2
Molecule: PhoQ, residues 284 288 289 292 302 303 SCCLKL
Method: Sort-seq
Item: YFP reporter
Matrix: E. coli
Notes: PhoQ-PhoP variant library
Together with: 10 µM Mg2+
Reference: high Mg2+ state
Reading: higher = stronger signaling
Quantity: fold induction
PhoP, residues 12 14 15 18 19 NFFVT (Escherichia coli, UniProt P23836): 6.54
PhoP, residues 12 14 15 18 19 TPWTL (Escherichia coli, UniProt P23836): 1.68
PhoP, residues 12 14 15 18 19 VGHWL (Escherichia coli, UniProt P23836): 2.56
PhoP, residues 12 14 15 18 19 LHHYF (Escherichia coli, UniProt P23836): 1.07

Series 3
Target: TAR DNA-binding protein 43, full length, His tag (TARDBP, Homo sapiens, UniProt Q13148, residues 1-414)
Method: RNA Bind-n-Seq
Molecule type: RNA
Matrix: in vitro
Tested at: 20 nM
Notes: 6-mer, flanks averaged, single round
Together with: 150 mM KCl
Reference: input library
Reading: higher = stronger binding
Quantity: 6-mer enrichment (R)
GGUGCA: 1.56
UCCCAA: 0.628
UUUGGA: 0.763
CUAUAU: 0.574
GAUUUC: 0.558
AGGGAG: 4.96
AAUGUA: 0.77
CAGACU: 0.631
UUGAGU: 0.886

Series 4
Target: Hepatocyte nuclear factor 3-alpha (Foxa1, Mus musculus, UniProt P35582, residues 1-468, full length assumed)
Method: EMSA with sequencing
Molecule type: double-stranded DNA, one strand shown
Matrix: in vitro
Tested at: 10 and 20 nM
Notes: whole designed probe, mean of two concentrations, ends assumed
Reference: negative control set to 0
Reading: higher = stronger binding
Quantity: normalised bound fraction
Residues (chain): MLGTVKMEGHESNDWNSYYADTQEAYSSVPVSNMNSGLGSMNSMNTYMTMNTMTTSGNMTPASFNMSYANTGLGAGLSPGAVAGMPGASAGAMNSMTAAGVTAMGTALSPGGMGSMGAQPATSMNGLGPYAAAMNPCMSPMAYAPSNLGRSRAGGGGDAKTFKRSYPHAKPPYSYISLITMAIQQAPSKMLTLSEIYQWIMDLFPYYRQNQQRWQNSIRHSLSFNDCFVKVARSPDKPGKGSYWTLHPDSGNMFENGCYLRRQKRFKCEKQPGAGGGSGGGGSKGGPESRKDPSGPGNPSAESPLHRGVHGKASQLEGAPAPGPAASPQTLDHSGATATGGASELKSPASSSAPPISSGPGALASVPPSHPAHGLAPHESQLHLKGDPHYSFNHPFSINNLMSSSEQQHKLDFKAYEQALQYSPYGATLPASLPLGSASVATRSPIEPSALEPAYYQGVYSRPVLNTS
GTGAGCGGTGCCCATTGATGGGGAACCACAATATATTTGGTAGCAGTACTAGAGGCTTCCCCTACCAGTTCTGGCACCATCCAGTTGAGATTTCTCCTGGCTCGGCTATCTGCCCAGCTCTGTTGACTTTGCACTGACTCAGTTTGGTTACTCTAAATGTACACACCCAATTCAAAAAAGTTTGAGACACCTTACAATAAGGTCATAGAACTTGTAATTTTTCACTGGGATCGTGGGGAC: 0.269 ratio
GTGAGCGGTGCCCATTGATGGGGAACCAGACTTCAAGTTAACACTTATTTTCCTGGTTTCTAAAGACCTTTCATTTTCTTTAGGAATTATTTCAGGGATCTTCTTGAGTAAATCTTTATGTTTACTTAGCAGCAACTCTAGATTTGAAAGCTAGAATTGTTTCCTTAGTTTTTCTTCCAAGGATTCTTCTTGGTATGAATATTGCAGAGCGTCTTTAGTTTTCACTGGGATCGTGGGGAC: 0.497 ratio
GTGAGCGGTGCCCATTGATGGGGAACCCTCTGATTTCTATAGCATGTTGTTAGTCCCTATATTTAACACATTGTTTCAGCCCTGTAGTATATTGAGCTACTGTTTTCCCTGCCCCATATGTCATCTTATTTAATAACTAGCATTTGTGGGGTTTATATTTTTCCAAATTATTTCAAATGTTTATTGATTTTACTCTTCACAGCATAAATATAAAGTGAATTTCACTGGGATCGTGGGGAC: 0.273 ratio
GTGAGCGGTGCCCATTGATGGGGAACAAGCAATACATGTTGTCAAAATACAGTGGCAACGGGAACCGAATAGATGTGAAGCAATGAGTGAGCCACCAATTACTAAAATATGTGGTCCTGAGTAATCTAGAGCTTAACGGAGAGATGAGAGGCGCCTGTGAAGTTGGAAAAGGTGGGCATAAGAATGTGTGCTAACTAGACCTGAAGTCTAGGCCGGCTGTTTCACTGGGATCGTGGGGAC: -0.0331 ratio
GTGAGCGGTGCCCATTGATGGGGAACAGGTGAATTGGCTGCTTCCATCCTGGCTTGGAACTTCAGACATAGAAGCCTTGGGACTTTCTCAGGACTTTCTCCAGATCTGACTCATGCTCAGCAATCTAGCATCTCTGTGGATCACGTGACCTTAGCCAGGGATGTTGGTGAAACTGTGTGTTGGTCTAGGTACCTAGCCCATGCTAGGTGCTCATCGAATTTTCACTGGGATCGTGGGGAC: -0.0578 ratio

Excerpt of the above (series 3):
CAGACU: 0.631
GAUUUC: 0.558
CUAUAU: 0.574
AAUGUA: 0.77
